Assay results pooled from the literature.
Compare with care: the assays were run in different laboratories. Several values in a cell are separate wells, animals, samples, runs or records. ± gives the spread as reported.

| SMILES | tested on | assay | test system | conditions | how to read | measurement | value |
| --- | --- | --- | --- | --- | --- | --- | --- |
| COc1cc(C=CC(=O)O)ccc1OS(=O)(=O)O |  |  | human plasma | mean |  | plasma concentration | 1270 nM |
| CC(C(=O)NCC(=O)NCC(CNC(=O)CNC(=O)C(C)N1CCN(CC(=O)[O-])CCN(CC(=O)[O-])CCN(CC(=O)[O-])CC1)(CNC(=O)CNC(=O)C(C)N1CCN(CC(=O)[O-])CCN(CC(=O)[O-])CCN(CC(=O)[O-])CC1)CNC(=O)CNC(=O)C(C)N1CCN(CC(=O)[O-])CCN(CC(=O)[O-])CCN(CC(=O)[O-])CC1)N1CCN(CC(=O)[O-])CCN(CC(=O)[O-])CCN(CC(=O)[O-])CC1.[Gd+3].[Gd+3].[Gd+3].[Gd+3] (stereo not drawn) |  | ICP-MS | female cynomolgus monkey, plasma | IV bolus, dose not given, 24 h, with: co-injected lanthanide agents |  | plasma Gd concentration | < 0.1 µmol Gd/L |
| COc1ccc(CCC(=O)O)cc1OS(=O)(=O)O |  |  | human plasma | median |  | plasma concentration | 273 nM |
| Cc1ccc(Sc2ccccc2N2CCNCC2)c(C)c1 |  | measured: postural dizziness | healthy adult women | oral, 10 mg daily, 12 days |  | participants with TEAE | 0% |
| O=C(O)CCC(=O)O.[2H]C([2H])([2H])Oc1cc(C)c2[nH]ccc2c1CN1CC[C@@H](C2CC2)C[C@H]1c1ccc(C(=O)O)cc1 |  | multiple ascending dose | healthy Chinese subjects | 50 mg twice daily |  | subjects with reduced potassium TEAE | 0% |
| CN(C)[C@@H]1C(O)=C(C(N)=O)C(=O)[C@@]2(O)C(O)=C3C(=O)c4c(O)cccc4[C@@](C)(O)[C@H]3C[C@@H]12 |  | starch gel membrane permeability | Gram-negative envelope surrogate | 200 µM, 20 min, pH 7.4 |  | amount permeated | 1.18 nmol |
| NC1(C(=O)N[C@@H](CCO)c2ccc(Cl)cc2)CCN(c2nc[nH]c3nccc2-3)CC1 |  |  | metastatic CRPC patients | dose not given, any grade, treatment-related, all doses, with: enzalutamide 160 mg daily |  | incidence of Leukopenia | 6.7% |
| CC(C)(C(=O)N1CCOc2c(C#N)cncc2C1)C(F)F |  | measured: ALT increased | human | oral, 10 mg, CSF pharmacokinetic cohort |  | subjects with adverse event | 16.7% |
| COc1cc(C[C@@H](CO)[C@H](CO)Cc2ccc(O)c(OC)c2)ccc1O |  |  | human plasma | median |  | plasma concentration | 1810 nM |
| CCOC(=O)[C@@]12C[C@@H]1[C@@H](n1ccc3c(NC)nc(C#Cc4ccc(Cl)s4)nc31)[C@H](O)[C@@H]2O |  |  | Sprague-Dawley rat, male, plasma | intravenous, 0.5 mg/kg |  | AUC extrapolated share | 11% |
| Cn1cncc1[C@@](N)(c1ccc(Cl)cc1)c1ccc2c(c1)c(-c1cccc(Cl)c1)cc(=O)n2C |  |  | human, plasma | oral, 200 mg/m^2, cycle 1 first dose | reference: AUC(0-inf) over AUC(0-12h) | accumulation index | 1.23 and 1.03 and 1.06 and 1.19 and 1.56 and 1.02 |
| CC(C)[C@H](N)C(=O)NCCCS(=O)(=O)O |  |  | human both sexes, plasma | oral, 256.5 mg once daily, day 1, fed capsule |  | AUC(0-24) | 10400 ng·h/mL |
| COc1ccc2c(=O)n(C)c(-c3ccccc3)nc2c1 |  |  | Sprague-Dawley rat, male, bladder | oral, 30 mg/kg, 2 h | reference: bladder over plasma | tissue/plasma ratio | 8.65 |
| Cc1ccc([C@@H]2O[C@H](CO)[C@@H](O)[C@H](O)[C@H]2O)cc1Cc1ccc(-c2ccc(F)cc2)s1 |  |  | Japanese type 2 diabetes patients | 100 mg, day 1, 24 h urine collection | reference: baseline | urinary calcium excretion change | -23.2 mg |
| Cc1cc(C)c(CNC(=O)c2cc(Cl)c3c(c2C)O[C@@](C)([C@H]2CC[C@H](N(C)C)CC2)O3)c(=O)[nH]1 |  |  | human relapsed/refractory NHL | oral, 200 mg once daily, onset day 1 to 14 |  | febrile neutropenia grade ≥3 | 0% |
| Cc1c2oc3c(C)ccc(C(=O)N[C@@H]4C(=O)N[C@H](C(C)C)C(=O)N5CCC[C@H]5C(=O)N(C)CC(=O)N(C)[C@@H](C(C)C)C(=O)O[C@@H]4C)c3nc-2c(C(=O)N[C@@H]2C(=O)N[C@H](C(C)C)C(=O)N3CCC[C@H]3C(=O)N(C)CC(=O)N(C)[C@@H](C(C)C)C(=O)O[C@@H]2C)c(N)c1=O |  | population PK model | human |  |  | V1 | 3.9 L/70 kg |
| C[C@@H]1CN(c2c(F)c(N)c3c(=O)c(C(=O)O)cn(C4CC4)c3c2F)C[C@H](C)N1 |  | starch gel membrane permeability | Gram-negative envelope surrogate | 200 µM, 45 min, pH 7.4 |  | amount permeated | 1.1 nmol |
| N#C[C@@]1(c2ccc3c(N)ncnn23)O[C@H](CO)[C@@H](O)[C@H]1O |  |  | beagle dog, male | oral, 6.5 mg/kg, capsule |  | apparent volume of distribution | 1.27 L/kg |
| O=C(Nc1nc2cccc(-c3ccc(CN4CCS(=O)(=O)CC4)cc3)n2n1)C1CC1 |  | measured: blood triglycerides increased | rheumatoid arthritis patients | oral, 30 mg once daily, 4 weeks, any relatedness |  | treatment-emergent adverse events | 5.9% |
| COc1c(O)cc2c(c1O)C(=O)c1c(cc(C)c(O)c1OC)C2=O | HepaRG co-cultured with HK-2 | MTT |  | 16.67 µM, 48 h | reference: untreated control | cell viability | 109 ± 7.75% |
| N#Cc1ccc2c(c1)[C@H]1CCCN(C(=O)c3ccc4[nH]cnc4c3)[C@H]1C2 |  |  | human | 80 mg, end of trial |  | minimum ACTH level | 1.6 pmol/L |
| CCN1CCN(c2cc(N3CCN(CC)CC3)nc(NCCNc3ccnc4cc(Cl)ccc34)n2)CC1 | COS-7 |  |  | 20 µM, 24 h, 0.1% DMSO, unit not given | reference: vehicle control | confluence | 0.4 ± 0.06 |
| O=C1CC[C@H](N2Cc3cc(N4CCN(CC5CCN(c6ccc([C@@H]7c8ccc(O)cc8CC[C@@H]7c7ccccc7)cc6)CC5)CC4)ccc3C2=O)C(=O)N1 |  | radiolabelled mass balance | Sprague-Dawley rat, female, bile duct-cannulated, bile | oral, 20 mg/kg, up to 72 h |  | dose excreted | 10.1% |
| CCn1c(=O)c(-c2cc(NC(=O)Nc3ccccc3)c(F)cc2Br)cc2cnc(NC)cc21 |  | measured: accidental overdose | human, mild hepatic impairment | oral, 50 mg single dose |  | participants with grade ≥ 3 TEAE | 0% |

| SMILES | tested on | assay | test system | conditions | how to read | measurement | value |
| --- | --- | --- | --- | --- | --- | --- | --- |
| CCCCCCCCC(=O)c1cc(O)c(O)c(O)c1 | COS-7 |  |  | 30 µM, 24 h, 0.1% DMSO, unit not given | reference: vehicle control | necrotic cells | 0.54 ± 0.3 |
| O=C1NC(=O)C(c2ccccc2)(c2ccccc2)N1 |  |  | Sprague-Dawley rat, serum | po, 40 mg/kg, 6 h |  | AST/ALT ratio | 1.52 and 2.22 |
| CC[C@H](C)[C@H](NC(=O)[C@H](Cc1ccccc1)NC(=O)[C@H](CCC(=O)O)NC(=O)[C@H](CCCCNC(=O)COCCOCCNC(=O)COCCOCCNC(=O)CC[C@H](NC(=O)CCCCCCCCCCCCCCCCC(=O)O)C(=O)O)NC(=O)[C@H](C)NC(=O)[C@H](C)NC(=O)[C@H](CCC(N)=O)NC(=O)CNC(=O)[C@H](CCC(=O)O)NC(=O)[C@H](CC(C)C)NC(=O)[C@H](Cc1ccc(O)cc1)NC(=O)[C@H](CO)NC(=O)[C@H](CO)NC(=O)[C@@H](NC(=O)[C@H](CC(=O)O)NC(=O)[C@H](CO)NC(=O)[C@@H](NC(=O)[C@H](Cc1ccccc1)NC(=O)[C@@H](NC(=O)CNC(=O)[C@H](CCC(=O)O)NC(=O)C(C)(C)NC(=O)[C@@H](N)Cc1cnc[nH]1)[C@@H](C)O)[C@@H](C)O)C(C)C)C(=O)N[C@@H](C)C(=O)N[C@@H](Cc1c[nH]c2ccccc12)C(=O)N[C@@H](CC(C)C)C(=O)N[C@H](C(=O)N[C@@H](CCCNC(=N)N)C(=O)NCC(=O)N[C@@H](CCCNC(=N)N)C(=O)NCC(=O)O)C(C)C |  | hypoglycaemic clamp | type 2 diabetes patients | dose not given, from glucose nadir to recovery |  | systolic blood pressure change | -9.4 mmHg |
| Cc1nc2cccc(OCC(C)(C)C(=O)NC(C)C)c2c(N)c1C(=O)O |  |  | male Swiss albino CD-1 mouse, bone marrow | oral, 500 mg/kg, 36 h |  | micronucleated PCE per 14000 PCE | 7 |
| O=C(O)Cc1cccc(O)c1 |  |  | human plasma | median |  | plasma concentration | 12100 nM |
| CCc1cc(C(=O)NC)c2nccc(N3CCc4c(cc(Cn5ccnc5)cc4-c4cn(C)nc4C(F)(F)F)C3=O)c2c1 |  |  | Sprague Dawley rats | oral, 50 mg/kg once daily, 7 days | reference: vehicle | serum MCV change | 3.06% |
| O=C(O)/C=C/c1ccc(O)cc1 |  |  | human plasma | mean |  | plasma concentration | 114 nM |
| COc1ccc2c(c1)CN(C(=O)CCN1CCC(Cc3ccccc3)CC1)CC[S@@+]2[O-] |  | telemetry | conscious dog | intravenous, 4 mg/kg, 24 h |  | diastolic blood pressure | 75 ± 11 mmHg |
| CCO[C@H]1CCN(Cc2c(OC)cc(C)c3[nH]ccc23)[C@H](c2ccc(C(=O)O)cc2)C1 |  |  | PNH patients, active haemolysis | oral, 100 mg, 8 weeks, treatment |  | incidence of dyspepsia | 0% |
| CCOc1c([C@H](C)n2nc(C)c3c(N)ncnc32)cc(Cl)c(F)c1[C@@H]1CNC(=O)C1 |  | measured: QTcF change above 60 ms | previously treated B-cell malignancy | oral, 10 mg once daily, baseline QTcF ≤450 ms | reference: baseline | ECG observations | 0% |
| COC(=O)c1ccc2c(c1)NC(=O)/C2=C(\Nc1ccc(N(C)C(=O)CN2CCN(C)CC2)cc1)c1ccccc1 |  |  | healthy volunteers, plasma | oral, 150 mg, with: pirfenidone |  | AUClast | 185 ng·h/mL |
| Cn1cnc2c1c(=O)[nH]c(=O)n2C |  |  | human, both sexes, plasma |  |  | samples above LOQ | 100% |
| C=CC(=O)NC1CCN(c2ncc3ncnc(Nc4ccc(Oc5ccc6c(c5)ncn6C)c(C)c4)c3n2)CC1 |  |  | human, male | oral, 240 mg, treatment-emergent adverse event |  | participants with grade 2 presyncope | 6.3% |
| CC(C)NCCCC[C@@H]1NC(=O)[C@H](Cc2ccc(O)cc2)NC(=O)[C@H](Cc2ccccc2)NC(=O)CC[C@H](C(=O)N[C@@H](CCCCNC(C)C)C(=O)N[C@@H](CCCCNC(=O)[C@H](CCC(=O)O)NC(=O)[C@H](CCC(=O)O)NC(=O)[C@H](CCC(=O)O)NC(=O)CN2CCN(CC(=O)O)CCN(CC(=O)O)CCN(CC(=O)O)CC2)C(N)=O)NC(=O)CNC(=O)[C@H](Cc2ccc3ccccc3c2)NC(=O)[C@@H](CCCNC(=N)N)NC1=O [gallium-68 labelled] |  |  | mouse with PC-3 xenograft, pancreas | intravenous, 1 h |  | tissue uptake | 0.13 %ID/g |
| CCCCC1=NC2(CCCC2)C(=O)N1Cc1ccc(-c2ccccc2S(=O)(=O)Nc2noc(C)c2C)c(COCC)c1 |  |  | healthy adult volunteers, plasma | oral, 50 mg, single dose, fed, crushed tablet |  | AUC(0-inf) | 10500 ng·h/mL |
| COc1c(O)c(C)cc2c1C(=O)c1c(ccc(O)c1O)C2=O | HepaRG co-cultured with HK-2 | MTT |  | 266.67 µM, 24 h | reference: untreated control | cell viability | 87.8 ± 12.5% |
| CSc1ccccc1C(=O)NCCn1cc(C(=O)NCc2cccc(C)n2)c(=O)c2cc3c(cc21)OC(F)(F)O3 |  |  | Sprague-Dawley rat, male, plasma | intramuscular, 3 mg/kg of parent drug |  | Tmax | 3.67 ± 2.19 h |
| CC(=O)O[C@H]1C[C@@]2(C)[C@@H](C[C@@H](O)[C@H]3[C@@]4(C)CC[C@@H](O)[C@@H](C)[C@@H]4CC[C@@]32C)/C1=C(\CCC=C(C)C)C(=O)O |  | starch gel membrane permeability | Gram-negative envelope surrogate | 200 µM, 10 min, pH 7.4 |  | amount permeated | 0.04 nmol |
| CCOc1c([C@H](C)n2nc(C)c3c(N)ncnc32)cc(Cl)c(F)c1[C@@H]1CNC(=O)C1 |  | measured: unchanged compound | Japanese patients, urine | oral, dose not given, 0-8 h, cycle 1 day 15 |  | amount excreted in urine (Ae) | 4490 ± 1840 nmol |
| C[C@H]1CN(C(=O)CC#N)[C@]12CCN(c1ncnc3[nH]ccc13)C2 |  |  | healthy Japanese males | oral, 1 mg single dose, mean |  | AUC(0-last) | 29 ng·h/mL |
| CC(F)(F)c1nc2nc(CO)cc(Nc3ccc(S(F)(F)(F)(F)F)cc3)n2n1 |  | LC-MS/MS | malaria patients, plasma | oral, 600 mg of parent drug |  | Cmax, metabolite | 897 ng/mL |
| C[C@@]1(c2cc(NC(=O)c3ccc(C#N)cn3)ccc2F)C=CSC(N)=N1 |  |  | young male humans, plasma | oral, 1 mg, single dose |  | dose-normalised Cmax | 6.72 ng/mL |
| O=C(O)[C@H]1O[C@@H](Oc2cc(O)cc(/C=C/c3ccc(O)cc3)c2)[C@H](O)[C@@H](O)[C@@H]1O |  |  | human, plasma |  |  | samples above LOQ | 100% |
| Nc1nc2c(nc([N+](=O)[O-])n2[C@@H]2O[C@H](CO)[C@@H](O)[C@H]2O)c(=O)[nH]1 |  | depurination, RP-HPLC | citrate-phosphate buffer 0.5 mM | 1177 min, pH 7, 37 °C |  | nucleoside remaining fraction | 0.536 |
